# Results of several laboratories.
# A part holds a random share of what one study measured. Changes are numbered by the printed parent chain.

# Series 1 — method: DHFR PCA, deep sequencing; medium: yeast; together with: (+)-ABA 0 µM; reference: wild-type fitted maximum; direction: higher = stronger binding
# Target: ABI1, truncated, D143A, DHFR fusion (Arabidopsis thaliana)
# Notes: methotrexate growth selection, single substitutions
# Parent: PYL1, truncated, DHFR fusion (Arabidopsis thaliana); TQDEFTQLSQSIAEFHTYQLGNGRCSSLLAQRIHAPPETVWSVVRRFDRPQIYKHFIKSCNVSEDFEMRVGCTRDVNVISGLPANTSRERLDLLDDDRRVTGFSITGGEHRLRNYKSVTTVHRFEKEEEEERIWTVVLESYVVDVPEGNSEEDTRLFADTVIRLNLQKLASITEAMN
Variant,relative binding score [%]
D65H,7.8
N114L,0.87
S63R,15.9
E128H,46.2
F56W,-0.638
T120W,-5.47
S117D,2.04
E109F,-10.1
V44E,1.18
P50I,-6.88
D92L,-1.2
D144V,3.21
N77G,14.9
A35M,2.02
Q19D,43.7
L138I,-0.862

# Series 2 — target: CCND3, cyclin fold, Cln2 fusion (human); method: yeast growth competition, sequencing; medium: yeast; notes: weak parent motif; reference: not given; direction: higher = stronger binding
# Parent: ORC1 docking peptide (human); PRARKRLELGNLG; partner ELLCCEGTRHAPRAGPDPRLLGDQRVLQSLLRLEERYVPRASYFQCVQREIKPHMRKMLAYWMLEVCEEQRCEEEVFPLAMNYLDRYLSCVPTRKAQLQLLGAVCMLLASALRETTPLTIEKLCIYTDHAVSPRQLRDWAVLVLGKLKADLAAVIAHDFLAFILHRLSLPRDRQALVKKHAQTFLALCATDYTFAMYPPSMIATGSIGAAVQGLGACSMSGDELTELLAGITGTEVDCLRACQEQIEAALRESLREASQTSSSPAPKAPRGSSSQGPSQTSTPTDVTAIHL
Variant,normalised enrichment score
PRAIKRLELGNLG [R4I],0.114
PRARKRLEGGNLG [L9G],0.0483
PRANKRLELGNLG [R4N],0.206
PRARKVLELGNLG [R6V],0.0411
PRARKRLMLGNLG [E8M],0.0534
PRASKRLELGNLG [R4S],0.081
PRARKRLELGILG [N11I],0.096
PRARKRLELGNLF [G13F],0.0654
PRARKRLELGNEG [L12E],0.129
PRARKRLELGSLG [N11S],0.134
PRARKRLELGNWG [L12W],0.16
PRARERLELGNLG [K5E],0.095
PRARKRLELGNLA [G13A],0.0654
PRDRKRLELGNLG [A3D],0.0562
PRARKILELGNLG [R6I],0.191
PRAPKRLELGNLG [R4P],0.129
PQARKRLELGNLG [R2Q],0.0754
PRARKFLELGNLG [R6F],0.282
PRARKRLELGNTG [L12T],0.101
PRARKRLELGNLT [G13T],0.0659
PRARKRLELGNYG [L12Y],0.0826
PRARKRLELGNQG [L12Q],0.108

# Series 3 — method: competition protein-binding microarray; form: double-stranded DNA, one strand shown; medium: in vitro; tested at: 2 µM; together with: Pho4 competitor, 0.05 µM; direction: higher = stronger binding; shared flanks, not repeated: … GTCTTGATTCGCTTGACGCTGCTG
# Target: Centromere-binding protein 1, full length, His-tagged (CBF1, Saccharomyces cerevisiae, UniProt P17106, residues 1-351)
# UniProt P17106, sequence (whole entry, looked up): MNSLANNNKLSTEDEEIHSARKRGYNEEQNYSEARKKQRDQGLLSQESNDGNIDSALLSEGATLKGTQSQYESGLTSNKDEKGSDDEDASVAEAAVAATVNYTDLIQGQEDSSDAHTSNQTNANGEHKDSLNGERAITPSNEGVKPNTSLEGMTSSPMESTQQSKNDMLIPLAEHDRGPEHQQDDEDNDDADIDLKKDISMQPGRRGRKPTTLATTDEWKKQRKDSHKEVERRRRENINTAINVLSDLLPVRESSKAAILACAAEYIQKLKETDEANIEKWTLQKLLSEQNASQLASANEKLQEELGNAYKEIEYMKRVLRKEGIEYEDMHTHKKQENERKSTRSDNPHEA
# Notes: whole 60-bp probe, lowest competitor level
Strand,fluorescence intensity [a.u.]
ATCATTACACCGCGAGTCGTGGGTACATTGTAGTTT,104
CCTGCTGGCCTGTACGACGTGCAAACATTCCATCGC,67.6
GCCGGATCCCGGAATAGCGTGATGGTCTACTCCTGT,60.4
ACTCCAAAATACATCCTCGTGGCAACCCAGGCTACG,93.2
GATACGCTCCTTGGCCTCGTGGTGATGCGCCAAAAC,68.6
ACCTATATGAATTCTCATGTGTCTCGTCTGATGTTC,88.3
TTCAGCCATCCAAGCCATGTGCTTTAAGTCGTCGCT,100
TAATCGGAGACGAGTCACGTGCAAAAAGAAATCATA,7470
ATTGAATTGGGATATCACATGGTTATTATGGGTCCT,686
TGCGCAACAACTTGTCACTCCACTTTATGTCTAGAA,79.6
CTGATGCCCATGGAGACTGTGACGCTAAGAGGAATT,72.7
CAAACTCAGTACCGTCAGCTGACAACTGCACTTCAA,417
AAAGCGGTAATTTGATTTGTGGGTGCAGATATCTAT,97.7
GCGTCGAAATCTAATTTTGTGACAGTGTAGTTCTTA,88.1
CGGGGTTAAGTTTGCAAAGTGGGTGGCTTGCAGCAG,70.2
CTAACGAAGGTTTGACTAGTGGGTGACAAGCCAAGT,66.2
AAATTACTAAGTTGAGCGGTGGGTGACGCCGTATGA,82.6
CTAGACCAGTAGCAACACATGGACCGATAACACCAG,72
GGCTTGTGTGAGTTCCACGTGCGGATGACTTAATAA,709

# Series 4 — method: protein-binding microarray; form: double-stranded DNA, one strand shown; medium: in vitro; tested at: 250 nM; notes: 60-bp whole probe; together with: salmon DNA 0.4 mg/ml; reference: random background probes; direction: higher = stronger binding; shared flanks, not repeated: GCCTAGCAC … GTCTTGATTCGCTTGACGCTGCTG
# Target: Interferon regulatory factor 5, full length, phosphomimetic (IRF5, Homo sapiens, UniProt Q13568-2, residues 1-514, K96S/S451D/S453D/S456D/S462D)
Strand,log fluorescence [z-score]
TTAGAACTGAGTTCCGATTAGTGCTAG,0.814
TTAGAACTAAGTTTCGATTAGTGCTAG,9.46
TTAGGACAGGGTATCGGTTAGTGCTAG,2.22
TCATCTCTGGTTCTTGCACTGTGCTAG,0.549
ATAGGTTTCGACACTGGGTTAGTGCTA,5.03
TTTGGTATCGACACTGGGTTAGTGCTA,4.3
TCATTTCTCTTTCACTAACTGTGCTAG,6.64
TCAGTTCTGATCCTTCCCACTGTGCTA,0.323
TTAGGGTTCGGGTATCGGTTAGTGCTA,3.25
TTAGAACTGAGTATTGATTAGTGCTAG,0.403
GACGATCTCAGTTGCGAGACGTGCTAG,0.138
GACGTTTTCGGGTTTCGGGACGTGCTA,6.38
TTAGACTTCAGTTTCGATTAGTGCTAG,9.58
GAATGAATGGACATTTCTTCGTGCTAG,0.206
TGAGGACTGGGTTTCGGTTAGTGCTAG,8.23
TCAATTTTCAATTCCTGACTGTGCTAG,1.4
TCAAGCCTCCATTTTTAACTGTGCTAG,-0.182
ATCCCGCCTGCCCCACAGAAGTGCTAG,-0.39
TTAGGATTCCTACTGCTTTAGTGCTAG,-0.064
